Results gathered from unrelated publications.
Each line is one published result; not all experiments were run side by side. Values joined by “and” are separate records of one study, mostly repeats; a detail may differ. ± marks the error that the study gave.

For `CC(C)C[C@H](NC(=O)[C@H](CO)NC(=O)[C@H](Cc1c[nH]c2ccccc12)NC(=O)[C@H](Cc1ccccc1)NC(=O)[C@H](Cc1ccccc1)NC(=O)[C@H](CCC(N)=O)NC(=O)[C@@H]1CCCN1C(=O)[C@H](CCCNC(=N)N)NC(=O)[C@H](CCCNC(=N)N)NC(=O)[C@H](CCCNC(=N)N)NC(=O)[C@H](CCC(N)=O)NC(=O)[C@H](CCCNC(=N)N)NC(=O)[C@H](CCCNC(=N)N)NC(=O)[C@H](CCCCN)NC(=O)[C@H](CCCCN)NC(=O)[C@H](CCCNC(=N)N)NC(=O)CNC(=O)[C@@H](N)Cc1ccc(O)cc1)C(=O)N[C@@H](CS)C(=O)N[C@H](C(=O)N[C@@H](C)C(=O)O)[C@@H](C)O`, “trypan blue-excluding cells” read 15% (Jurkat; 7.5 µM, 17 h, no zVAD-fmk).
`COc1nc(CC=C(C)CC=CC(C)=CC(C)C(OC2OC(CO)C(O)C(O)C2O)C(C)=CCO)c(C)c(O)c1OC` (centres unmarked) — result for “mitochondrial membrane potential”: “increased” (HK-2; JC-1 red/green ratio; concentration not given, together with: H2O2).
The viability decrease of `Cc1cc(O)cc(-c2nc(Nc3cc(C(F)(F)F)cc(C(F)(F)F)c3)ncc2-c2ccnc(Cl)c2)c1` is reported as greater than 50% (LS174T; 10 µM, 72 h; reference: untreated cells).
For `CCCc1cc2c(c(OC)c1OC)OCO2`, the GI50 was greater than 250 µM (SK-OV-3; cell growth or viability, MTT; 72 h).
`C[C@H]1O[C@@H]2C3=C(O[C@]2(C)[C@@]1(O)C=O)C(=O)c1c(O)cccc1C3=O` has a selectivity index of 2.93 (MDA-MB-231 and HFF; MTT; reference: CC50 HFF over EC50 MDA-MB-231).
The viability of `COC(=O)C1=CO[C@@H](OC(C)=O)[C@@H]2C(Cn3cc(CCO)nn3)=CC[C@H]12` is reported as 65.3 ± 0.29% (SK-N-SH; neuroprotection, MTT; 0.6 µM, 24 h, together with: 250 µM H2O2).
With `CCCCCCCCC1(CCCCCCCC)c2cc(-c3cc4[n+]5c(c3)-c3cccc[n+]3[Ir-3]536([c]5c(c(C)cc(C)c5-c5cccc[n+]53)-c3cccc[n+]36)[n+]3ccccc3-4)ccc2-c2ccc(-c3cc4[n+]5c(c3)-c3cccc[n+]3[Ir-3]536([c]5c(c(C)cc(C)c5-c5cccc[n+]53)-c3cccc[n+]36)[n+]3ccccc3-4)cc21.F[P-](F)(F)(F)(F)F.F[P-](F)(F)(F)(F)F.F[P-](F)(F)(F)(F)F.F[P-](F)(F)(F)(F)F` the phototherapeutic index was 288 and > 280 (SK-MEL-28; visible light 100 J/cm2; reference: dark EC50 over visible-light EC50).
`CC/C=C\C/C=C\C/C=C\C/C=C\C/C=C\C/C=C\CCC(=O)Nc1ccn(C2OC(CO)C(O)C2(F)F)c(=O)n1` (centres unmarked) gave a CC50 of 61.9 µM (SNB-19; NCI60 screen).
For `Cc1cc(C)c(N2CCN(c3c(C)cc(C)cc3C)C2=[Se])c(C)c1.[Cl][Au]`, the resistance factor was 1.6 (LoVo-OXP colon cancer cells; MTT; reference: LoVo-OXP over LoVo IC50).
For `CSCC[C@H](NC(=O)[C@H](CC(C)C)NC(=O)[C@H](Cc1c[nH]cn1)NC(=O)CNC(=O)[C@@H](NC(=O)[C@H](C)NC(=O)[C@H](Cc1c[nH]c2ccccc12)NC(=O)[C@H](CCC(N)=O)NC(=O)CCCCCCCNC(=O)[C@@H](CO)NC(=O)[C@@H](CO)NC(=O)[C@@H](CO)NC(=O)CN1CCN(CC(=O)O)CCN(CC(=O)O)CCN(CC(=O)O)CC1)C(C)C)C(N)=O` [indium-111 labelled], “hypoxia enhancement factor” read 1.17 ± 0.12 (PC-3; 8 h; reference: hypoxic over normoxic).
The viability of `COC(=O)C1=CO[C@@H](OC(C)=O)[C@@H]2C(Cn3cc(CCBr)nn3)=CC[C@H]12` is reported as 74.8 ± 0.6% (SK-N-SH; neuroprotection, MTT; 0.15 µM, 24 h, together with: 250 µM H2O2).
The GI50 of `C[P+](c1ccccc1)(c1ccccc1)c1ccccc1` is reported as greater than 250 µM (SK-OV-3; cell growth or viability, MTT; 72 h).
`CCCCCCCCOCc1cn(CC2=CC[C@@H]3C(C(=O)OC)=CO[C@@H](OC(C)=O)[C@H]23)nn1` has a viability of 68.1 ± 0.1% (SK-N-SH; neuroprotection, MTT; 0.3 µM, 24 h, together with: 250 µM H2O2).
The phototherapeutic index of `F[P-](F)(F)(F)(F)F.F[P-](F)(F)(F)(F)F.[Ru+2].c1ccc(-c2ccccn2)nc1.c1ccc(-c2ccccn2)nc1.c1csc(-c2ccc(-c3ccc(-c4cc5cccnc5c5ncccc45)s3)s2)c1` is reported as 400 (SK-MEL-28; cell viability; visible light; reference: dark EC50 over light EC50).
With `c1ccc(Nc2c3c(nc4ccccc24)CCCC3)cc1` the viability was 60.4 ± 2.73% (SH-SY5Y; MTT; 50 µM, 1 h pretreatment, 10% FBS, together with: H2O2).
`COC(=O)C1=CO[C@@H](OC(C)=O)[C@@H]2C(Cn3cc(CN(C)Cc4ccccc4)nn3)=CC[C@H]12` has a viability of 51.2 ± 0.8% (SK-N-SH; neuroprotection, MTT; 0.6 µM, 24 h, together with: 250 µM H2O2).
For `Cc1ccc(CNc2c(NC3CCN(Cc4ccccc4)CC3)c(=O)c2=O)cc1`, the cell survival was 58.9% (SH-SY5Y; neuroprotection, MTT; 12.5 µM, 24 h pretreatment, together with: H2O2 650 µM for 4 h).
`CC(C)CC(O)(CC(C)C)c1cn(C(=O)N2CCCC2)nn1` has a protein level of 0.99 ± 0.14 (mouse T-cells; SILAC proteomics, refers to: EFHD2; 1 nM, 6 h, unit not given; reference: DMSO).
With `COC(=O)C1=CO[C@@H](OC(C)=O)[C@@H]2C(Cn3cc(-c4ccc(F)cc4)nn3)=CC[C@H]12` the viability was 52.3 ± 0.9% (SK-N-SH; neuroprotection, MTT; 0.6 µM, 24 h, together with: 250 µM H2O2).
With `[Cl][Au].[Se]=c1n(C2CCCCC2)ccn1C1CCCCC1` the resistance factor was 0.8 (LoVo-OXP colon cancer cells; MTT; reference: LoVo-OXP over LoVo IC50).
`O=C(O)CCC(NP(=O)(O)OCCC[C@@H](NC(=O)CCC(NC(=O)c1ccc([18F])cc1)C(=O)O)C(=O)O)C(=O)O` (some centres unmarked) has a cell uptake of 0.7 ± 0.45% (CWR22Rv1; 2 h).
`Cc1ccnc(Nc2c3c(nc4ccccc24)CCCC3)c1` has a viability of 61.8 ± 1.55% (SH-SY5Y; MTT; 50 µM, 1 h pretreatment, 10% FBS, together with: H2O2).
`CCC(C)C(=O)OC1C2C3(C)CCC(OC4CC(OC)C(OC5OC(C)C(OC6OC(CO)C(O)C(O)C6O)C(OC)C5O)C(C)O4)CC3CCC23OC32CCC(C(C)=O)C2(C)C1OC(C)=O` (centres unmarked): “fold reversal of IC50” 1 (MDA435/LCC6-MDR1; cell growth, MDR reversal, SRB; 10 µM, together with: paclitaxel; reference: paclitaxel alone over combination).
The viability of `COC(=O)C1=CO[C@@H](O)[C@@H]2C(Cn3cc(CON4C(=O)c5ccccc5C4=O)nn3)=CC[C@H]12` is reported as 70.9 ± 1.3% (SK-N-SH; neuroprotection, MTT; 0.15 µM, 24 h, together with: 250 µM H2O2).
Under binding, `CC(C)[C@H](NC(=S)Nc1ccc2c(c1)C(=O)OC21c2ccc(O)cc2Oc2cc(O)ccc21)C(=O)N[C@@H](CCCNC(=N)N)C(=O)N[C@@H](CCCNC(=N)N)C(=O)N[C@@H](C)C(=O)N[C@@H](CC(=O)O)C(=O)N[C@@H](CC(N)=O)C(=O)N[C@@H](CCCNC(=N)N)C(=O)N1CCC[C@H]1C(=O)NCC(=O)O` is recorded as “no binding” (vector-transfected HeLa; fluorescence; 5 µg/mL, 15 min, 37 °C).
`CCCCCCCCCCOCc1cn(CC2=CC[C@@H]3C(C(=O)OC)=CO[C@@H](O)[C@H]23)nn1` has a viability of 60.8 ± 0.6% (SK-N-SH; neuroprotection, MTT; 0.3 µM, 24 h, together with: 250 µM H2O2).
For `C[OH+][Cu-2]12[O]C(c3cn(-c4ccccc4)nc3-c3ccc(F)cc3)=N[N+]1=C(C)c1c(cc(C)oc1=O)[O]2` (centres unmarked), the selectivity index was 5.7 (A549 and Vero cells; cell viability, MTT; reference: IC50 Vero over IC50 A549).
The viability of `COC(=O)C1=CO[C@@H](O)[C@@H]2C(Cn3cc(C4(O)CCCC4)nn3)=CC[C@H]12` is reported as 77.2 ± 0.9% (SK-N-SH; neuroprotection, MTT; 0.6 µM, 24 h, together with: 250 µM H2O2).
`COc1cc(C(=O)NCCOCCOCCOCCNC(=O)c2ccc([18F])nc2)ccc1NC(=O)C1NC(CC(C)(C)C)C(C#N)(c2ccc(Cl)cc2F)C1c1cccc(Cl)c1F` (centres unmarked) gave a maximal uptake of 559 ± 23 %/mg protein (HepG2; 1 h).

A few entries again:
The viability of `COC(=O)C1=CO[C@@H](O)[C@@H]2C(Cn3cc(CON4C(=O)c5ccccc5C4=O)nn3)=CC[C@H]12` is reported as 70.9 ± 1.3% (SK-N-SH; neuroprotection, MTT; 0.15 µM, 24 h, together with: 250 µM H2O2).
The phototherapeutic index of `F[P-](F)(F)(F)(F)F.F[P-](F)(F)(F)(F)F.[Ru+2].c1ccc(-c2ccccn2)nc1.c1ccc(-c2ccccn2)nc1.c1csc(-c2ccc(-c3ccc(-c4cc5cccnc5c5ncccc45)s3)s2)c1` is reported as 400 (SK-MEL-28; cell viability; visible light; reference: dark EC50 over light EC50).
`CCC(C)C(=O)OC1C2C3(C)CCC(OC4CC(OC)C(OC5OC(C)C(OC6OC(CO)C(O)C(O)C6O)C(OC)C5O)C(C)O4)CC3CCC23OC32CCC(C(C)=O)C2(C)C1OC(C)=O` (centres unmarked): “fold reversal of IC50” 1 (MDA435/LCC6-MDR1; cell growth, MDR reversal, SRB; 10 µM, together with: paclitaxel; reference: paclitaxel alone over combination).
